Published values from different studies.
Each numbered part is a random draw from the data of one study; scales do not carry over between parts. “And” joins repeats or separate records; there may be more than shown.

Series 1
Target: Interferon regulatory factor 5, full length, phosphomimetic (IRF5, Homo sapiens, UniProt Q13568-2, residues 1-514, S451D/S453D/S456D/S462D)
Technique: protein-binding microarray
Molecule type: double-stranded DNA, one strand shown
Sample: in vitro
Tested at: 940 nM top
Notes: 60-bp whole probe
Added: salmon DNA 0.4 mg/ml
Relative to: random background probes
Reading: higher = stronger binding
Strand | fitted relative affinity [z-score]
GCCTAGCACGACGATATCGGCTTTCGAGACGTGCTAGTCTTGATTCGCTTGACGCTGCTG | 0.394
GCCTAGCACCTTCTCCTCTAGGTTCTCTGAGTGCTAGTCTTGATTCGCTTGACGCTGCTG | 0.139
GCCTAGCACCACTCTCTGCTTGTGTCTGGGTGCTAGGTCTTGATTCGCTTGACGCTGCTG | 2.77
GCCTAGCACTTAGGACTGGGTATCGGTAAGTGCTAGGTCTTGATTCGCTTGACGCTGCTG | 2.41

Series 2
Target: RNA binding protein fox-1 homolog 2, RRM domain, GST-SBP tag (RBFOX2, Homo sapiens, UniProt O43251-10, residues 100-194)
Technique: RNA Bind-n-Seq
Molecule type: RNA
Sample: in vitro
Tested at: 365 nM
Notes: natural RNA segment, single round, ends assumed
Relative to: no-protein control
Reading: higher = stronger binding
Shared flanks, not repeated: GGGAGUUCUACAGUCCGACGAUC … UGGAAUUCUCGGGUGCCAA
Construct (chain): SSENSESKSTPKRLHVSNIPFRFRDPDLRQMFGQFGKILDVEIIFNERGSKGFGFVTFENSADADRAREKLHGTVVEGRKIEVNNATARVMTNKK
Strand | RBNS enrichment (R)
UUUUGUCUGUACUGACUCUAUCUGCCACACAGAAUGUAUGUAUGUAAUAUUCAGUAAUAAAUGUCAUCAGGUGAUGACUGGAUGAGCUGCUGAAGACAUUCGUAUUAUGU | 0.411
ACAUUUCAUAAUGUUGGCACUGGAGUAUUAUAAGAGAUCAUGAAUGUUUCCUUAAUUAUCAUGGCAAGAUUACCUCACGUUCAGUAUAGUUUAGUUUUGUGUGUAUCUUA | 0.652
UGUGUGAGGGGAAUAAUGUGGAAAGCUGAGGUCUAAUUGUGGUGACGUUAGCUGUCCCAGGCCACAAGCCAUACCCAACCUUGACCUUCCUGGGUCACAAUGAUCAGUUG | 0.236
CAAGGCAUUUACUCCUUGGUCUGUCUCGCUUUAUCUGUCGCCCCUCCCAGCGCUGAGAGCCUCCCCUGGCUGUCAGCAGCACUGUGUCCAGGCUCUUGUCUGAACACCGC | 0.163
GAUGAUGGUGACCGUGAAAGUGAAAUGGAAGGGAUGAGUGAAGAGGUUUUGGUUUGUUUGUUUGUUUUUUCUUUUUUUGAGGAAUUUUCAGGGAAGUGAGGAAACCCUUG | 0.863
GGGUUGGAAUGUGGAACUGCAGCCUCAGCCCAUCUGGCAGAGUCCCAGGAACUCGGAGACUGGCACAGCUGCUUUGUCUGCCAGUGCCGUGUGUUGUCAUGUCACUCACC | 0.341

Series 3
Target: Sal-like protein 4, full length isoform A (SALL4, Homo sapiens, UniProt Q9UJQ4, residues 1-1053)
Chain of UniProt Q9UJQ4 (whole entry, looked up): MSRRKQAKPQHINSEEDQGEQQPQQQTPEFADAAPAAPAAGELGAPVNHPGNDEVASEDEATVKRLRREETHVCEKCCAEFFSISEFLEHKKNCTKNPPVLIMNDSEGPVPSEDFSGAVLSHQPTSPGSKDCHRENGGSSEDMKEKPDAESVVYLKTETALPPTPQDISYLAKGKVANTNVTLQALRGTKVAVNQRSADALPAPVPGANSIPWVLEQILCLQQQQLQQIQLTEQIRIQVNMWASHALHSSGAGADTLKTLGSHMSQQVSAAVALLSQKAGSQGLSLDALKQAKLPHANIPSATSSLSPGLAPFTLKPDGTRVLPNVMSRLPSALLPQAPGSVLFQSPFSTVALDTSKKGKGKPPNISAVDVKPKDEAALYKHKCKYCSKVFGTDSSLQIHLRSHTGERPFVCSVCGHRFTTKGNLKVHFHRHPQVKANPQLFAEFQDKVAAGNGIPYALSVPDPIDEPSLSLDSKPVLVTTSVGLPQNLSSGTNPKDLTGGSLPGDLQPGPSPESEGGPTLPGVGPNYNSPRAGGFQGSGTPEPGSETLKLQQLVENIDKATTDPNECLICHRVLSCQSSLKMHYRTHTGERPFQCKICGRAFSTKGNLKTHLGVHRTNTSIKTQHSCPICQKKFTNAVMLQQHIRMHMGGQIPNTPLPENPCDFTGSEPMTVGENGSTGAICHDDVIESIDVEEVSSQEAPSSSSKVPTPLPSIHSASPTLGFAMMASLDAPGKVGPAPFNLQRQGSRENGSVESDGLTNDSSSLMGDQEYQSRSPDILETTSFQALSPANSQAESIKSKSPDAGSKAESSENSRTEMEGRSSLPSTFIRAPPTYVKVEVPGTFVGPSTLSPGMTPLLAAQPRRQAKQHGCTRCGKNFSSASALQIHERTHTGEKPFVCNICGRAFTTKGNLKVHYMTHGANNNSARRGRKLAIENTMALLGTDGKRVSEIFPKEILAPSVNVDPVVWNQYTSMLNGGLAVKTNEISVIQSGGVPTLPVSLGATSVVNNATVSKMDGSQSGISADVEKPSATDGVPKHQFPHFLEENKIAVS
Technique: universal PBM
Molecule type: double-stranded DNA, one strand shown
Sample: in vitro
Tested at: 600 nM
Notes: 8-mer, flanks averaged, mean of replicates
Reading: higher = stronger binding
Strand | E-score
AAGTCATC | 0.115
GGAGGTGA | -0.147
CGTTTGAA | 0.119
ATTTATGC | 0.374

Other studies, line by line
Substance | target | test | test system | setting | scale | quantity | value
PhoQ, residues 284 288 289 292 302 303 NLCILV | PhoP, residues 12 14 15 18 19 LWHCS (Escherichia coli, UniProt P23836) | Sort-seq, item: YFP reporter | E. coli | PhoQ-PhoP variant library, added: 10 µM Mg2+ | relative to: high Mg2+ state, higher = stronger signaling | fold induction | 10.3 and 13

Some of these lines once more (series 3):
Strand | E-score
GGAGGTGA | -0.147
CGTTTGAA | 0.119
